# Measured values of several laboratories.
# Compare with care: the assays were run in different laboratories. “And” joins repeats or separate records; there may be more than shown. ± gives the spread as reported.
Structure (SMILES),assay,test system,setting,plasma concentration
COc1cc2c(Nc3ccc(Cl)c(Cl)c3F)ncnc2cc1OC[C@@H]1C[C@@H]2CN(C)C[C@@H]2C1,,"FVB Mdr1a/b(-/-)Bcrp1(-/-) triple knockout mice, both sexes, plasma","intraperitoneal infusion (osmotic pump), 10 mg/mL at 1 µL/h, 48 h",1220 ng/g
O=C1CCC(N2Cc3cc(CO)c(F)cc3C2=O)C(=O)N1 (stereo not drawn),,CD-1 mice,"intravenous, 1 mg/kg, 24 h",not detected
Cc1cc([C@@H](C)Nc2ccccc2C(=O)O)c2nc(N3CCC(F)(F)CC3)c(C#N)c(=O)n2c1,,"NOD SCID mice, HCC1954 xenograft","oral, 100 mg/kg once daily, 1 h",76 ng/mL
O=S(=O)(c1ccc(-c2ccc3nccc(Nc4ccncn4)c3c2)cc1)N1CCOCC1,,"female BALB/c mice, plasma","intraperitoneal, 10 mg/kg, 8 h",1.07 ng/mL and 2.85 ng/mL and 2.56 ng/mL
COc1nc(-c2cc(C)c(N[C@@H](C)c3cc(F)cc(F)c3)nn2)ccc1-n1cnc(C)c1,,"C57BL/6J mice, male, plasma","oral, 25 mg/kg daily for 9 days, 4 h after last dose",13200 ng/mL
Cc1ccc(CCC(=O)Nc2nnc(S(N)(=O)=O)s2)cc1,,"BALB/c mice, plasma","oral, 20 mg/kg, 24 h",not detected
CC1(C)NC(=O)N(c2ccc(F)c(C(C)(F)F)c2)C1=O,,"male Swiss outbred mice, plasma","oral, 100 mg/kg, 24 h",32800 ± 324 ng/mL
O=[N+]([O-])c1ccc(-c2ccc(O)cc2)c2cccnc12,,"male ICR mice, plasma","intravenous, 1 mg/kg, 0.25 h",113 ng/mL
O=Cc1cc2c(cc1F)C(=O)N(C1CCC(=O)NC1=O)C2 (stereo not drawn),,CD-1 mice,"intravenous, 1 mg/kg, 0.5 h",not detected
COc1nc(-c2cc(C)c(N[C@@H](C)c3c(F)cc(F)cc3F)nn2)ccc1-n1cnc(C)c1,,"C57BL/6J mice, male, plasma","oral, 10 mg/kg daily for 9 days, 4 h after last dose",2160 ng/mL
CC[C@H](C)[C@H](NC(=O)[C@H](CCC(=O)O)NC(=O)[C@H](CO)NC(=O)[C@@H](NC(=O)[C@@H](N)CO)C(C)C)C(=O)N[C@@H](CCC(N)=O)C(=O)N[C@@H](CC(C)C)C(=O)N[C@@H](CCSC)C(=O)N[C@@H](Cc1cnc[nH]1)C(=O)N[C@@H](CC(N)=O)C(=O)N[C@@H](CC(C)C)C(=O)NCC(=O)N[C@@H](CCCCN)C(=O)N[C@@H](Cc1cnc[nH]1)C(=O)N[C@@H](CC(C)C)C(=O)N[C@@H](CC(N)=O)C(=O)N[C@@H](CO)C(=O)N[C@@H](CCSC)C(=O)N[C@@H](CCC(=O)O)C(=O)N[C@@H](CCCNC(=N)N)C(=O)N[C@H](C(=O)N[C@@H](CCC(=O)O)C(=O)N[C@@H](Cc1c[nH]c2ccccc12)C(=O)N[C@@H](CC(C)C)C(=O)N[C@@H](CCCNC(=N)N)C(=O)N[C@@H](CCCCN)C(=O)N[C@@H](CCCCN)C(=O)N[C@@H](CC(C)C)C(=O)N[C@@H](CCC(N)=O)C(=O)N[C@@H](CC(=O)O)C(=O)N[C@H](C(=O)N[C@@H](Cc1cnc[nH]1)C(=O)N[C@@H](CC(N)=O)C(=O)N[C@@H](Cc1ccccc1)C(N)=O)C(C)C)C(C)C,ELISA,"female CD-1 mice, blood plasma","subcutaneous, 10 nmol/kg, 4 h",0.025 nM
Cc1cc2sc(N)nc2c2cccnc12,LC-MS,"BALB/c mice, female","intraperitoneal, 30 mg/kg, 4 h",1030 ± 130 ng/mL
NCc1cc2c(cc1F)C(=O)N(C1CCC(=O)NC1=O)C2 (stereo not drawn),,CD-1 mice,"oral, 10 mg/kg, 8 h",not detected
COc1cc(F)c([C@@H]2CNC(=O)[C@H]2NC(=O)Nc2ccccc2)c(F)c1,,"C57BL/6 mice, LPS challenge, plasma","oral, 0.3 mg/kg, 1.5 h post dose",8 ± 2 nM
CN1C(=O)c2ccccc2[S@+]([O-])c2ccc(C(=O)NCCc3cccs3)cc21,,"male C57BL/6 mice, plasma","ip, 30 mg/kg, 24 h, below quantification limit 1 ng/mL",not detected

# Excerpt of the above:
Structure (SMILES),assay,test system,setting,plasma concentration
CC[C@H](C)[C@H](NC(=O)[C@H](CCC(=O)O)NC(=O)[C@H](CO)NC(=O)[C@@H](NC(=O)[C@@H](N)CO)C(C)C)C(=O)N[C@@H](CCC(N)=O)C(=O)N[C@@H](CC(C)C)C(=O)N[C@@H](CCSC)C(=O)N[C@@H](Cc1cnc[nH]1)C(=O)N[C@@H](CC(N)=O)C(=O)N[C@@H](CC(C)C)C(=O)NCC(=O)N[C@@H](CCCCN)C(=O)N[C@@H](Cc1cnc[nH]1)C(=O)N[C@@H](CC(C)C)C(=O)N[C@@H](CC(N)=O)C(=O)N[C@@H](CO)C(=O)N[C@@H](CCSC)C(=O)N[C@@H](CCC(=O)O)C(=O)N[C@@H](CCCNC(=N)N)C(=O)N[C@H](C(=O)N[C@@H](CCC(=O)O)C(=O)N[C@@H](Cc1c[nH]c2ccccc12)C(=O)N[C@@H](CC(C)C)C(=O)N[C@@H](CCCNC(=N)N)C(=O)N[C@@H](CCCCN)C(=O)N[C@@H](CCCCN)C(=O)N[C@@H](CC(C)C)C(=O)N[C@@H](CCC(N)=O)C(=O)N[C@@H](CC(=O)O)C(=O)N[C@H](C(=O)N[C@@H](Cc1cnc[nH]1)C(=O)N[C@@H](CC(N)=O)C(=O)N[C@@H](Cc1ccccc1)C(N)=O)C(C)C)C(C)C,ELISA,"female CD-1 mice, blood plasma","subcutaneous, 10 nmol/kg, 4 h",0.025 nM
CC1(C)NC(=O)N(c2ccc(F)c(C(C)(F)F)c2)C1=O,,"male Swiss outbred mice, plasma","oral, 100 mg/kg, 24 h",32800 ± 324 ng/mL
